# Experimental data of several laboratories.
# Cell line: SK-OV-3
Compound,test,setting,scale,measurement,result
C=C(NC(=O)c1csc(-c2ccc(NC(=O)CCCCCBr)cc2)n1)C(=O)NC(=C)C(=O)OC,cell growth or viability,,,EC50,2.2 µM
Cc1nc2c(F)cc(-c3nc(Nc4ccc(CNC(=O)CCCC(=O)NO)cc4)ncc3F)cc2n1C(C)C,"cell growth or viability, CCK-8","0.3 µM, 48 h",,inhibition,76.5%
C1=[N+]2CCCC[N+]3=Cc4ccc5[n]4[Au-]23[n]2c1ccc2-c1nc2ccccc2nc1-5.F[P-](F)(F)(F)(F)F,NCI60 five-dose screen,,,TGI,4.06 -log M
CCCc1cc2cc(-n3nc(C4CC4)c4c3CC(C)(C)CC4=O)cc(N3CCC(O)CC3)c2c(=O)[nH]1,"cell growth or viability, MTS",,,IC50,8.74 µM
C=C(NC(=O)c1csc(-c2cccnc2)n1)C(=O)NC(=C)C(=O)OC,cell growth or viability,,,EC50,21 µM
O=C(Nc1nnc2c1c(-c1ccc(Cl)cc1)nc1sc(=Cc3ccco3)c(=O)n12)c1ccccc1 (mixture of isomers),SRB,"10 µM, NCI60 single-dose screen",relative to: untreated,cell growth,53.6%
CCCc1cc2cc(-n3nc(N)c4c3CC(C)(C)CC4=O)cc(N3CCC(O)CC3)c2c(=O)[nH]1,"cell growth or viability, MTS",,,IC50,> 50 µM
Cc1nc2c(F)cc(-c3nc(Nc4ccc(CNC(=O)CCCCCCC(=O)NO)cc4)ncc3F)cc2n1C(C)C,"cell growth or viability, CCK-8","0.3 µM, 48 h",,inhibition,99.2%
CCCc1cc2cc(-n3nc(C(F)(F)F)c4c3CC(C)(C)CC4=O)cc(N3CCC(O)CC3)c2c(=O)[nH]1,"cell growth or viability, MTS",,,IC50,3.47 µM
CCN(C(=O)c1cc(F)ccc1Oc1nncnc1N1CCC2(C1)CN([C@H](CCCN(C)CCOC)C(C)C)C2)C(C)C,cell growth or viability,72 h,,GI50,> 10 µM

# A few entries again:
Compound,test,setting,scale,measurement,result
Cc1nc2c(F)cc(-c3nc(Nc4ccc(CNC(=O)CCCCCCC(=O)NO)cc4)ncc3F)cc2n1C(C)C,"cell growth or viability, CCK-8","0.3 µM, 48 h",,inhibition,99.2%
